Results pooled from the literature.
Compare with care: the assays were run in different laboratories. ± gives the spread as reported.
MAPK8: Mitogen-activated protein kinase 8 (MAPK8, Homo sapiens, UniProt P45983)
Pick1 PDZ domain: PRKCA-binding protein, PDZ domain (Pick1, Rattus norvegicus, UniProt Q9EP80)
Prkcd C1b domain: Protein kinase C delta type, C1b domain (Prkcd, Mus musculus, UniProt P28867)
MAPK14: Mitogen-activated protein kinase 14 (MAPK14, Homo sapiens, UniProt Q16539)
Glutamate receptor ionotropic, kainate 3: Glutamate receptor ionotropic, kainate 3 (Rattus norvegicus, UniProt P42264)
Sigmar1: Sigma non-opioid intracellular receptor 1 (Sigmar1, Rattus norvegicus, UniProt Q9R0C9)
FOLH1: Glutamate carboxypeptidase 2 (FOLH1, Homo sapiens, UniProt Q04609)

By UniProt entry, the sequences of proteins in these tests, tags left out. Where a name states a change or a piece, a line headed by the entry shows the natural chain unless it says otherwise. Residues count along the entry.
UniProt P45983, whole entry: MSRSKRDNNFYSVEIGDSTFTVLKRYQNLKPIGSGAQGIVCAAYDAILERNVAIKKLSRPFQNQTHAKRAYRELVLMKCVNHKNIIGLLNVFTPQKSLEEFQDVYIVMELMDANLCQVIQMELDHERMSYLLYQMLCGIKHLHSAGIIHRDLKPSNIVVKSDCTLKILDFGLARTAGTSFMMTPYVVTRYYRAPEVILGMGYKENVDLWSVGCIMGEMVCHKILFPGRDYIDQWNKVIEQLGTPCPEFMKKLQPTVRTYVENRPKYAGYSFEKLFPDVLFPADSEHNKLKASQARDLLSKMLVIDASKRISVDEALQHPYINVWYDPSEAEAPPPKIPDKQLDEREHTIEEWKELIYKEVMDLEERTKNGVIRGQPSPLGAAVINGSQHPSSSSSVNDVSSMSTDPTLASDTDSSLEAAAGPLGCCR
UniProt P45983, 1-384 isoform 3: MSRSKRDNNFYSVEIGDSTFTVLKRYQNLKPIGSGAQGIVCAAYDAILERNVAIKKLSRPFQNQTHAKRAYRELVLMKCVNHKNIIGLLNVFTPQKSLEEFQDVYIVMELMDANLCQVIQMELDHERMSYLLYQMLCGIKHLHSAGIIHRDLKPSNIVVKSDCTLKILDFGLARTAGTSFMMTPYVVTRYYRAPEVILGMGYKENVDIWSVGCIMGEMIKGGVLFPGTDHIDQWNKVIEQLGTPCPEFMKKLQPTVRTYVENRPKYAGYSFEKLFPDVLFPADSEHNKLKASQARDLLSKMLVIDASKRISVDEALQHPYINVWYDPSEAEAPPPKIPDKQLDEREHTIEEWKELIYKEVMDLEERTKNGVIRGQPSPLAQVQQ
UniProt Q9EP80, whole entry: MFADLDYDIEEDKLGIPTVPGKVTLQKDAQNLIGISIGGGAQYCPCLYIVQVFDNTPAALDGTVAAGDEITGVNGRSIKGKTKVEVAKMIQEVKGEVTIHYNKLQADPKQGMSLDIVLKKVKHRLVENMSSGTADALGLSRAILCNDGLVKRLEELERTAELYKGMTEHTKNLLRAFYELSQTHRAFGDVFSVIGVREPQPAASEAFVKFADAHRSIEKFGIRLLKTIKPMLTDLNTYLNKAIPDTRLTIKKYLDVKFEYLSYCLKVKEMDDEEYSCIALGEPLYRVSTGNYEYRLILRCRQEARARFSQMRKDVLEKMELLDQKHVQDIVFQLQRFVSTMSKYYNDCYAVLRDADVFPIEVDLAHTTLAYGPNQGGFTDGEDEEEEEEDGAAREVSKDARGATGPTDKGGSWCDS
UniProt P28867, 231-280 limits assumed: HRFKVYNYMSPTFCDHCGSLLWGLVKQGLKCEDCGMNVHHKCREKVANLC
UniProt Q16539, whole entry: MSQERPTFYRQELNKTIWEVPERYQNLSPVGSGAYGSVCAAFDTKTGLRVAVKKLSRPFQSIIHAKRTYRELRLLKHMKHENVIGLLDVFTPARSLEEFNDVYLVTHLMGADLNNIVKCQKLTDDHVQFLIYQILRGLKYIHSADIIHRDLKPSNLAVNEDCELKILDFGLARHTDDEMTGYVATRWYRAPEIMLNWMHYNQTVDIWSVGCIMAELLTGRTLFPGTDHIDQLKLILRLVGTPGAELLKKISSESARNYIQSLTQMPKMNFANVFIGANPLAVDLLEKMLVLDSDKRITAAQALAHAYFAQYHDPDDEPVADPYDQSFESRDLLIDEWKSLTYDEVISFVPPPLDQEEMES
UniProt P42264, 32-919 limits assumed: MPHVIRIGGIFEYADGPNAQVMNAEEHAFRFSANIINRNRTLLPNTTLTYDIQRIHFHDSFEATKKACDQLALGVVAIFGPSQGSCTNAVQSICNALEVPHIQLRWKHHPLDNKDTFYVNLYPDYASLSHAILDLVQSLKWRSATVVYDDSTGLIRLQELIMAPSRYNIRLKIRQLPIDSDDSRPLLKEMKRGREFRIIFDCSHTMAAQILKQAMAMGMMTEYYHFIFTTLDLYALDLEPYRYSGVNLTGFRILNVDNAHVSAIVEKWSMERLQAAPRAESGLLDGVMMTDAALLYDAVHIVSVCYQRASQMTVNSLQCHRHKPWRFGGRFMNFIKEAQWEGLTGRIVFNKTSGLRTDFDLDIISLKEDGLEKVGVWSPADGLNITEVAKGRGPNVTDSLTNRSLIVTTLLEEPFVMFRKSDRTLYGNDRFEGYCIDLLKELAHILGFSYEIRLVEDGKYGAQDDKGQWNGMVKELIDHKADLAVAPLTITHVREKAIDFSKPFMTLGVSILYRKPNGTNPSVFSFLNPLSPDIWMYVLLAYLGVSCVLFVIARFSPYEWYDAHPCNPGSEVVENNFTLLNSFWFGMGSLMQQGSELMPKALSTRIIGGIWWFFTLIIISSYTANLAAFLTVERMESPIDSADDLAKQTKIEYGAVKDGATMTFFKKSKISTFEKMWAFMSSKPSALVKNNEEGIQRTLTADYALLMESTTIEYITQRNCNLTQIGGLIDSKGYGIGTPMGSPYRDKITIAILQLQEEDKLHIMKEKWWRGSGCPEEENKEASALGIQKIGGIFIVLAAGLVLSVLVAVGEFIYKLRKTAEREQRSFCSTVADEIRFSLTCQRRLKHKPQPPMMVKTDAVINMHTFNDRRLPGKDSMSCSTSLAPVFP
UniProt Q9R0C9, whole entry: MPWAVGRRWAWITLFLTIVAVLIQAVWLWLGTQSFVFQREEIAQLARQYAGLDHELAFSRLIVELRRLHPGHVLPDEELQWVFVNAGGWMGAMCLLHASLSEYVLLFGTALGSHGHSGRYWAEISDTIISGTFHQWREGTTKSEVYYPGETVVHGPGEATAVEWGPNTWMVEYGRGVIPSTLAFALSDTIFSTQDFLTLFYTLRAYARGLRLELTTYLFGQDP
UniProt Q04609, whole entry: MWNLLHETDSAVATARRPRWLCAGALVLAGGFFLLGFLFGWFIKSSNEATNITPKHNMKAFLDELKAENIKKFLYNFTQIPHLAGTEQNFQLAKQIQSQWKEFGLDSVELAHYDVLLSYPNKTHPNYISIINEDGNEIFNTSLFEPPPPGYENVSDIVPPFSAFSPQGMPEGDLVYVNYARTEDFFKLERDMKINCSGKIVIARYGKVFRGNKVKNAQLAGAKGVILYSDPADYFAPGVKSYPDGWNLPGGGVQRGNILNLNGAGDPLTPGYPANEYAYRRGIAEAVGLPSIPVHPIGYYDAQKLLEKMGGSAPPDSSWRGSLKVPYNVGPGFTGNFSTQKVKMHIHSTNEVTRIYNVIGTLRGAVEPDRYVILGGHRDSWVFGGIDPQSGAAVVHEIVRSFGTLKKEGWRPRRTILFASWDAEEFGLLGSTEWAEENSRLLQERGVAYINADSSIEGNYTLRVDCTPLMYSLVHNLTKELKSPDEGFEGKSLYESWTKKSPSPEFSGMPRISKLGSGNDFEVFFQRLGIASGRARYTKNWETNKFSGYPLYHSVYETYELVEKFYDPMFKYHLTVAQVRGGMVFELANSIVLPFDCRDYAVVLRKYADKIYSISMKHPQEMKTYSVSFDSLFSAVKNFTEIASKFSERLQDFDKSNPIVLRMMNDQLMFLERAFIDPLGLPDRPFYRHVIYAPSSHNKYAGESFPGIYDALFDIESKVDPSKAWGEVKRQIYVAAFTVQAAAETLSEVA
UniProt Q9NRA0, whole entry: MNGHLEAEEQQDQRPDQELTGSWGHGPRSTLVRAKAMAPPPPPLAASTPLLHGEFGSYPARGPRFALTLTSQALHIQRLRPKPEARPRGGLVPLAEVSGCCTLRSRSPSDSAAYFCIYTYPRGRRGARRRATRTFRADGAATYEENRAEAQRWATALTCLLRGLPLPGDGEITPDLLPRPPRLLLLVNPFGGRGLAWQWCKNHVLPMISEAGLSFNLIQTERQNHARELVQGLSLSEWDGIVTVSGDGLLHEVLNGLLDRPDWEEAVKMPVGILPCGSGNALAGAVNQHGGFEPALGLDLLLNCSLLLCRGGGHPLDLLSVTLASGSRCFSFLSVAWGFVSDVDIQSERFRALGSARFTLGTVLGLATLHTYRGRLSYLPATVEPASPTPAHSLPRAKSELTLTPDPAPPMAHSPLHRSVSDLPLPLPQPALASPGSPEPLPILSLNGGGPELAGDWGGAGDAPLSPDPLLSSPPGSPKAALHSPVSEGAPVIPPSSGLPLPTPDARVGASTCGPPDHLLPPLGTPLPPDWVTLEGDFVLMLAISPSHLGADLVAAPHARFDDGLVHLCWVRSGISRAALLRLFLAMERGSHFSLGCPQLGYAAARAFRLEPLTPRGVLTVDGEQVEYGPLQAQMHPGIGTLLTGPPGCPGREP
UniProt P40261, whole entry: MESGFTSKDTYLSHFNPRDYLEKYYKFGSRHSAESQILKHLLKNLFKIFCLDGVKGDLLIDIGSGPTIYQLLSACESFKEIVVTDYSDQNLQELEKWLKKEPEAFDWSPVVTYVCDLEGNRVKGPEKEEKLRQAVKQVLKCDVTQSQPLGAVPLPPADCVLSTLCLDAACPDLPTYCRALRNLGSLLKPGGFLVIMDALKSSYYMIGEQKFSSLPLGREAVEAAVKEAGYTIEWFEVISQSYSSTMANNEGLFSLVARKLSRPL
UniProt P47900, whole entry: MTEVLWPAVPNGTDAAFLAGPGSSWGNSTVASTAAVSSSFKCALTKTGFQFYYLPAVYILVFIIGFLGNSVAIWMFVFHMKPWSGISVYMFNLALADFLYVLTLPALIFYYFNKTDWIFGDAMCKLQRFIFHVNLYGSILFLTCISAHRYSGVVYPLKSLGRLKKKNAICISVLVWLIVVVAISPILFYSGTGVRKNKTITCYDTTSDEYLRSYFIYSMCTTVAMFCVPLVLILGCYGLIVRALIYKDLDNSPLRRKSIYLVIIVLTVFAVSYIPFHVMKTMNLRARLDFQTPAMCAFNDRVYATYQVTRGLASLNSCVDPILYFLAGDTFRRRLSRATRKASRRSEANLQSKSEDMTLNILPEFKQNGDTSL
UniProt P31645, whole entry: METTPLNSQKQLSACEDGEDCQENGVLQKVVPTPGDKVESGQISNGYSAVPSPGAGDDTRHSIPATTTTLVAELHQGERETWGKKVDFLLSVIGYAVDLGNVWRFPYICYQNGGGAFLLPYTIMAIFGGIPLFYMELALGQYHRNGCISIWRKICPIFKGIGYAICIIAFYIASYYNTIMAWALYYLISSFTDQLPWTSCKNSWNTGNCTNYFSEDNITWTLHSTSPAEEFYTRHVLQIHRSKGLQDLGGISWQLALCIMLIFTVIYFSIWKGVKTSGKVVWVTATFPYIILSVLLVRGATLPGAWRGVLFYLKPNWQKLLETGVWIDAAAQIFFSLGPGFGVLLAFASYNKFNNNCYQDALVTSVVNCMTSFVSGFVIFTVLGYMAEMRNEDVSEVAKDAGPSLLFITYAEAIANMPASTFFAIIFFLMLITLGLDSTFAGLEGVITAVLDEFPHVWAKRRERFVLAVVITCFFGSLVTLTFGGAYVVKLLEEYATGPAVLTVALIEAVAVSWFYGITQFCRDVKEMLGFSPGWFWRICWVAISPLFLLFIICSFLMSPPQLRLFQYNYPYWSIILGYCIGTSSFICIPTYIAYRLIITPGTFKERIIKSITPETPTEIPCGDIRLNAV
UniProt Q07440, whole entry P104K/C113S, looked up: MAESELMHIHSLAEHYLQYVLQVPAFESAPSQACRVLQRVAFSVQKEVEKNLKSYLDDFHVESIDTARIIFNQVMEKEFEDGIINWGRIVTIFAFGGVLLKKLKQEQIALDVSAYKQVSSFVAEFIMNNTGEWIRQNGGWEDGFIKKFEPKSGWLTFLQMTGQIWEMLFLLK
UniProt Q8TBC4, 2-463 limits assumed: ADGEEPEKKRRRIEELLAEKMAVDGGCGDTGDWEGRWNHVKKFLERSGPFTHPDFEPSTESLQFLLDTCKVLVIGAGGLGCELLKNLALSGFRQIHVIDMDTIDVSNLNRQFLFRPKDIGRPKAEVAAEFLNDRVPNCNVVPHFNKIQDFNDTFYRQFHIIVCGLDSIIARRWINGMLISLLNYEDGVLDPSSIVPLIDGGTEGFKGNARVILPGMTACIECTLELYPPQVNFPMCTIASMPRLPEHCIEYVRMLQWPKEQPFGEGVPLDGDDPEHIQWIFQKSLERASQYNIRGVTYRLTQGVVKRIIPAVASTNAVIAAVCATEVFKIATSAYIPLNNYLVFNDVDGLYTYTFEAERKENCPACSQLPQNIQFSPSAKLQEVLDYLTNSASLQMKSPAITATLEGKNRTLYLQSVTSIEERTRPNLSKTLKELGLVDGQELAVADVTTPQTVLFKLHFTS
UniProt P21761, whole entry: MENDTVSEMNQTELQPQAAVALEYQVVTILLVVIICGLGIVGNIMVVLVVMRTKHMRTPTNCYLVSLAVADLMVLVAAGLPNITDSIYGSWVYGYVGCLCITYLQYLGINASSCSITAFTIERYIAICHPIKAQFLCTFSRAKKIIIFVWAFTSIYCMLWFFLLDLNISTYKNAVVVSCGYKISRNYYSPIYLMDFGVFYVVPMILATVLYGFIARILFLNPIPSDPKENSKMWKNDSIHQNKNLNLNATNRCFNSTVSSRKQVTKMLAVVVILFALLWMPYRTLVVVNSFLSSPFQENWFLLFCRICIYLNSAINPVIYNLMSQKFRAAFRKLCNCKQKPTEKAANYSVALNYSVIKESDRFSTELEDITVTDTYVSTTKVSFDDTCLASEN

SMILES | target or system | assay | test system | setting | measurement | result
COC(=O)C1(C)C=C(C(=O)Nc2cccc(C(=O)Nc3ccc(Nc4nccc(-c5cccnc5)n4)c(C)c3)c2)C(=O)C1 (stereo not shown) | MAPK8 | SPR two-step reversible model |  |  | Ki | 1.6 nM
FC1CCN(c2ccc(-c3ccc4sc(-c5ccnnc5)cc4n3)cn2)CC1 | Alpha-synuclein, PD brain aggregates (SNCA, Homo sapiens, UniProt P37840) | binding | Parkinson's disease brain homogenate | with: [3H]asyn-44 1 nM | Ki | 26.4 nM
COC(=O)C1(C)C=C(C(=O)Nc2ccccc2)C(=O)CC1 (stereo not shown) | MAPK8 | D-peptide displacement, fluorescence polarization |  |  | Ki | > 200000 nM
CCOC(=O)NC(=O)/C(C#N)=C/c1ccc(Br)c([N+](=O)[O-])c1 | Pick1 PDZ domain | binding, fluorescence polarization |  | with: labelled hDAT C-terminal peptide | Ki | 11000 ± 1200 nM
CC(C)(C)OC(=O)C1=CC(C)(C(=O)c2ccccc2)CCC1=O (stereo not shown) | MAPK8 | docking peptide binding, competitive inhibitor, fluorescence polarization |  | with: labelled JIP1 peptide | Ki | 14500 ± 2700 nM
O[C@@H](c1ccc(F)cc1)C(F)(F)CCN1CCC(O)(c2ccc(Cl)cc2)CC1 (racemic) | Tmem97 (Rattus norvegicus, UniProt Q5U3Y7) |  |  |  | Ki | 30.9 ± 4.3 nM
CCCCCCCCC(CCCCCCCCC=CCCCCCCCCC(CCCCCCCC)C(=O)OCC1(CO)CC(=C(C)C)C(=O)O1)C(=O)OCC1(CO)CC(=C(C)C)C(=O)O1 (racemic) | Prkcd C1b domain | binding, [3H]PDBu competition |  | 5 min, 37 °C, with: phosphatidylserine 100 µg/mL | Ki | 3 ± 0.76 nM
CCOc1cc(C(C)(C)C)ccc1C1=N[C@H](c2ccc(Cl)cc2)[C@H](c2ccc(Cl)cc2)N1C(=O)N1CCN(CC(=O)NCCOCCOCCOCCNC(=O)CN2CCN(C(=O)N3C(c4ccc(C(C)(C)C)cc4OCC)=N[C@H](c4ccc(Cl)cc4)[C@@H]3c3ccc(Cl)cc3)CC2=O)C(=O)C1 | E3 ubiquitin-protein ligase Mdm2, with p53 (MDM2, Homo sapiens, UniProt Q00987) | binding, fluorescence polarization competition |  |  | Ki | 9900 ± 2300 nM
CCCCCCCCC(CCCCCCC=CCCCCCCC(CCCCCCCC)C(=O)OCC1(CO)CC(=C(C)C)C(=O)O1)C(=O)OCC1(CO)CC(=C(C)C)C(=O)O1 (racemic) | Prkcd C1b domain | binding, [3H]PDBu competition |  | 5 min, 37 °C, with: phosphatidylserine 100 µg/mL | Ki | 1.86 ± 0.41 nM
C#CCCCCOC(=O)[C@]1(C)C=C(C(=O)OC(C)(C)C)C(=O)CC1 | MAPK14 | D-peptide displacement, fluorescence polarization |  |  | Ki | 1300 nM
COc1cccc(-c2c(C#N)c(N)nc(SCc3ncc[nH]3)c2C#N)c1 | ADORA2A (Homo sapiens, UniProt P29274) | radioligand displacement | HEK293 membranes | with: 0.8 nM [3H]ZM241385 | Ki | 38 ± 5.5 nM
O=C(NCc1ccc(-c2cnco2)cc1)[C@@H]1C[C@@H](O)CN1C(=O)c1cccc(Br)c1 | von Hippel-Lindau disease tumor suppressor, with elongin B, C (VHL, Homo sapiens, UniProt P40337) | inhibitor, fluorescence polarization | VHL-elonginB-elonginC complex | 1% DMSO, with: FAM-DEALA-Hyp-YIPD peptide | Ki | 23300 nM
CCOC(=O)C1(C2CCCCC2)C=C(C(=O)OC(C)(C)C)C(=O)CC1 (stereo not shown) | MAPK8 | docking peptide binding, competitive inhibitor, fluorescence polarization |  | with: labelled JIP1 peptide | Ki | 47000 ± 8300 nM
CCCCCCCCC(CCC=CCCC(CCCCCCCC)C(=O)OCC1(CO)CC(=C(C)C)C(=O)O1)C(=O)OCC1(CO)CC(=C(C)C)C(=O)O1 (racemic) | Prkcd C1b domain | binding, [3H]PDBu competition |  | 5 min, 37 °C, with: phosphatidylserine 100 µg/mL | Ki | 2.07 ± 0.08 nM
CCOC(=O)N(CC)C(=O)/C(C#N)=C/c1ccc(Cl)c(Cl)c1 | Pick1 PDZ domain | binding, fluorescence polarization |  | with: labelled hDAT C-terminal peptide | Ki | 40000 ± 3100 nM
CCCCCCCCCCCCCC[C@@H](O)[C@@H](O)[C@H](CO[C@H]1O[C@H](CO)[C@H](O)[C@H](O)[C@H]1O)NC(=O)CCCCCCCCCCc1ccccc1 | Cd1d1, dimeric Ig fusion (Mus musculus, UniProt P11609) | binding, competitive microarray binding |  | with: printed glycolipid 100 µM | Ki | 1600 ± 900 nM
CCCCCCCCCCCCc1ccc(C(=O)NC2(C(=N)N)CC2)cc1 | SPHK2 (Homo sapiens, UniProt Q9NRA0) | inhibitor, TLC |  |  | Ki | 500 nM
C=C1CC2/C=C/C(C)(C)CC=C3CC(CO)(COC(=O)CC(O)CC4CC(=C)CC(CC(C1)O2)O4)OC3=O (stereo not shown) | PRKCA (Homo sapiens, UniProt P17252) |  |  |  | Ki | 363 ± 42 nM
O=C(O)c1cc(C(=O)N[C@@H](Cc2cnc[nH]2)C(=O)O)cc([C@H]2CCN[C@@H]2C(=O)O)c1 | Glutamate receptor ionotropic, kainate 3 | binding, radioligand binding | Sf9 membranes | homomeric receptor, with: [3H]kainate | Ki | 6230 ± 2690 nM
CC(=O)N(CC#Cc1cccc(C(N)=O)c1)C[C@H]1C[C@@H](n2ccc3c(N)ncnc32)[C@H](O)[C@@H]1O | NNMT (Homo sapiens, UniProt P40261) | enzyme activity, inhibitor |  |  | Ki | 78 nM
COC(=O)[C@]1(C)C=C(C(=O)OCc2ccccc2)C(=O)CC1 | MAPK8 | D-peptide displacement, fluorescence polarization |  |  | Ki | 15300 ± 2400 nM
C/C(=N\OCCN1CCCCCC1)c1ccc(C(F)(F)F)cc1 | Sigmar1 | radioligand binding | rat |  | Ki | 156.8 ± 1.2 nM

SMILES | target or system | assay | test system | setting | measurement | result
CC[N+]1=C(C=CC=CC=C2N(CCCCCC(=O)NCCCC[C@H](NC(=O)N[C@@H](CCC(=O)O)C(=O)O)C(=O)O)c3ccc4c(S(=O)(=O)O)cc(S(=O)(=O)O)cc4c3C2(C)C)C(C)(C)c2c1ccc1c(S(=O)(=O)O)cc(S(=O)(=O)[O-])cc21 | FOLH1 | enzyme activity, inhibitor |  | compound in water, with: [3H]NAAG 30 nM | Ki | 0.09 ± 0.04 nM
c1ccc(Cc2noc(-c3cccc(OC4CCNCC4)c3)n2)cc1 | Glycylpeptide N-tetradecanoyltransferase (Plasmodium falciparum, UniProt Q9U419) | enzyme activity, inhibitor, CPM fluorescence |  | with: substrate 4.0 µM | Ki | 2600 nM
N=C(N)NCCC[C@H](NC(=O)c1cc(C(=O)O)cc([C@H]2CCN[C@@H]2C(=O)O)c1)C(=O)O | Glutamate receptor ionotropic, kainate 3 | binding, radioligand binding | Sf9 membranes | homomeric receptor, with: [3H]kainate | Ki | 2780 ± 1410 nM
CNc1nc(C#CCCC(=O)O)nc2c1ncn2[C@H]1C[C@H](OP(=O)(O)O)[C@]2(COP(=O)(O)O)C[C@H]12 | P2Y purinoceptor 1 (P2RY1, Homo sapiens, UniProt P47900) | binding, radioligand binding | Sf9 cell membranes | 30 min, 4 °C, with: iodinated P2Y1 antagonist radioligand | Ki | 23 ± 3 nM
O=C(CNc1ccc2ncccc2c1)N/N=C/c1cc(Br)c(O)c(Br)c1 | CFTR (Homo sapiens, UniProt P13569) | apical chloride current, inhibitor | FRT cells expressing CFTR | basolateral membrane permeabilised | Ki | 25000 to 50000 nM
COC(=O)C1(C)C=C(C(=O)Nc2cccc3cccnc23)C(=O)CC1 (stereo not shown) | MAPK14 | D-peptide displacement, fluorescence polarization |  |  | Ki | 38900 ± 6200 nM
CCCCOC(=O)[C@@]12C[C@@H]1[C@@H](n1cnc3c(NC)nc(C#Cc4ccc(Cl)s4)nc31)[C@H](O)[C@@H]2O | SLC6A4 (Homo sapiens, UniProt P31645) | binding, radioligand binding | HEK293 | with: [3H]citalopram | Ki | 4100 nM
Cc1ccc(NC(=O)c2cc3ccccc3c(N=Nc3ccccc3O)c2O)c(C)c1 | Bcl-2-related protein A1 (Mus musculus, UniProt Q07440, C113S/P104K) | binding, inhibitor, fluorescence polarization |  | with: FITC-labelled Noxa peptide | Ki | 700 nM
CC(C)[C@H](NC(=O)c1cc(C(=O)O)cc([C@H]2CCN[C@@H]2C(=O)O)c1)C(=O)O | NMDA receptor (rat) | binding, radioligand binding | rat cortical synaptosomes | with: [3H]CGP39653 | Ki | 3400 nM
C/C(=N\OCCN1CCN(C2COC2)CC1)c1ccc(C(F)(F)F)cc1 | Sigmar1 | radioligand binding | rat |  | Ki | 108 ± 2.4 nM
CCCCN(C(=O)OCC)C(=O)/C(C#N)=C/c1ccc(Cl)c(Cl)c1 | Pick1 PDZ domain | binding, fluorescence polarization |  | with: labelled hDAT C-terminal peptide | Ki | 19000 ± 4700 nM
CC(C)C[C@H](NC(=O)c1cc(C(=O)O)cc([C@H]2CCN[C@@H]2C(=O)O)c1)C(=O)O | Glutamate receptor ionotropic, kainate 3 | binding, radioligand binding | Sf9 membranes | homomeric receptor, with: [3H]kainate | Ki | 20600 ± 3100 nM
CC(C)C[C@@H]1NC(=O)N([C@H](c2cn([C@@H](CC(C)C)C(=O)NCCOCCOCCNC(=O)CCC(=O)N[C@@H](CCCCNS(=O)(=O)c3cccc4c(N(C)C)cccc34)C(=O)N[C@H]3CCOC3=O)nn2)C(C)C)C1=O | NEDD8-activating enzyme E1 catalytic subunit, with NAE1 (UBA3, Homo sapiens, UniProt Q8TBC4) | inhibitor, fluorescence polarization competition |  |  | Ki | 6400 ± 300 nM
C[C@H](NC(=O)c1cc(C(=O)O)cc([C@H]2CCN[C@@H]2C(=O)O)c1)C(=O)O | Glutamate receptor ionotropic, kainate 3 | binding, radioligand binding | Sf9 membranes | homomeric receptor, with: [3H]kainate | Ki | 17800 ± 2100 nM
CC1(C)C(=CC=CC=CC=CC2=[N+](CCCCS(=O)(=O)[O-])c3ccc4ccccc4c3C2(C)C)N(CCCCCC(=O)NCCOCCOCC(=O)NCCCC[C@H](NC(=O)N[C@@H](CCC(=O)O)C(=O)O)C(=O)O)c2ccc3ccccc3c21 | FOLH1 | enzyme activity, inhibitor |  | compound in DMSO, with: [3H]NAAG 30 nM | Ki | 0.4 ± 0.06 nM
CCCCCCCCC(CCCCCC=CCCCCCC(CCCCCCCC)C(=O)OCC1(CO)CC(=C(C)C)C(=O)O1)C(=O)OCC1(CO)CC(=C(C)C)C(=O)O1 (racemic) | Prkcd C1b domain | binding, [3H]PDBu competition |  | 5 min, 37 °C, with: phosphatidylserine 100 µg/mL | Ki | 1.17 ± 0.34 nM
COC(=O)C1(C)C=C(C(=O)NCc2ccccc2)C(=O)CC1 (stereo not shown) | MAPK14 | D-peptide displacement, fluorescence polarization |  |  | Ki | 42200 ± 2900 nM
Cn1cnc(C[C@H](NC(=O)[C@@H]2CCC(=O)N2)C(=O)N2CCC[C@H]2C(N)=O)c1 [isotope labelled] | Thyrotropin-releasing hormone receptor (Mus musculus, UniProt P21761) | radioligand binding, competition binding | HEK293 cells | 1 h, 37 °C, with: [3H][N(1)-methyl-His]TRH | Ki | 3 nM
COc1cc(Nc2ccnc3cc(-c4ccncc4)ccc23)cc(OC)c1OC | GAK (Homo sapiens, UniProt O14976) |  |  |  | Ki | 1.5 nM
COc1cc([C@@H]2c3cc4c(cc3[C@@H](CC(C)(C)O)[C@H]3COC(=O)[C@H]23)OCO4)cc(OC)c1OC | Leishmania infantum |  | promastigote, iRFP |  | EC50 | > 100000 nM
O=C(O)c1cc(C(=O)N[C@@H](Cc2c[nH]c3ccccc23)C(=O)O)cc([C@H]2CCN[C@@H]2C(=O)O)c1 | Glutamate receptor ionotropic, kainate 3 | binding, radioligand binding | Sf9 membranes | homomeric receptor, with: [3H]kainate | Ki | 10000 to 50000 nM

For quick reference, copied from above:
SMILES | target or system | assay | test system | setting | measurement | result
N=C(N)NCCC[C@H](NC(=O)c1cc(C(=O)O)cc([C@H]2CCN[C@@H]2C(=O)O)c1)C(=O)O | Glutamate receptor ionotropic, kainate 3 | binding, radioligand binding | Sf9 membranes | homomeric receptor, with: [3H]kainate | Ki | 2780 ± 1410 nM
c1ccc(Cc2noc(-c3cccc(OC4CCNCC4)c3)n2)cc1 | Glycylpeptide N-tetradecanoyltransferase (Plasmodium falciparum, UniProt Q9U419) | enzyme activity, inhibitor, CPM fluorescence |  | with: substrate 4.0 µM | Ki | 2600 nM
